Assay results gathered from unrelated publications.
Lines come from different studies, so protocols differ. Numbers after ± are the reported error.

SMILES | test | system | setting | scale | endpoint | value
C=CCNc1c(O)cc2c(O)c1C[C@@H](C)C[C@H](OC)[C@H](O)[C@@H](C)/C=C(\C)[C@H](OC(N)=O)[C@@H](OC)/C=C\C=C(/C)C(=O)N2 | – | unresectable or metastatic STS, GIST, other | intravenous, 150 mg/m^2 | – | patients with arthralgia TEAE | 0%
[Cl][212Pb][Cl] | measured: 212Pb | athymic mouse, C4-2 prostate xenograft, salivary gland | intravenous, dose not given, 2 h | – | tissue uptake | not detected
COc1cc2c(Oc3ccc4[nH]c(C)cc4c3F)ccnc2cc1OCC1(N)CC1 | – | paediatric recurrent refractory sarcoma | 12 mg | – | grade 1 or 2 Headache | 27.3%
C[C@@H](NC(=O)N1C(=O)[C@H](Cc2ccnc(N)c2)[C@H]1C(=O)O)C1CCCCC1 | – | healthy adult Chinese volunteers | continuous intravenous infusion, 2.25 mg/kg/h, 5-day infusion, CTCAE 5.0 grading | – | abnormal liver function leading to discontinuation | 25%
C[C@]1(O)C[C@@](N)(c2ccc(-c3nc4n(c3-c3ccccc3)COc3ccncc3-4)cc2)C1 | – | human, advanced or metastatic solid tumours | dose not given, all patients | – | patients with grade ≥3 Stomatitis TEAE | 11.8%
CC(C)[C@@H]1NC(=O)CNC(=O)[C@H](CC(N)=O)NC(=O)[C@H](CCCNC(=N)N)NC(=O)[C@H](Cc2ccc(O)cc2)NC(=O)[C@H](C(C)C)NC(=O)[C@@H](NC(=O)[C@@H](NC(=O)[C@H](CC(N)=O)NC(=O)[C@H](Cc2c[nH]c3ccccc23)NC(=O)[C@H](C)NC(=O)[C@H](Cc2ccccc2)NC(=O)CN)C(C)C)CSSC[C@@H](C(=O)N[C@@H](Cc2cnc[nH]2)C(=O)N[C@@H](CCCNC(=N)N)C(=O)N[C@@H](CCCNC(=N)N)C(=O)N[C@@H](C)C(=O)N[C@@H](CC(N)=O)C(N)=O)NC(=O)[C@H](C(C)C)NC(=O)[C@H](CCCNC(=N)N)NC1=O | – | ICR mice, blood | intraperitoneal, 10 mg/kg daily for 3 days, day 5 | – | haemoglobin | 121 ± 1.44 g/L
CCCCCOc1ccc(-c2ccc(-c3ccc(C(=O)N[C@H]4C[C@@H](O)[C@@H](OCC[N+](C)(C)C)NC(=O)[C@@H]5[C@@H](O)[C@@H](C)CN5C(=O)[C@H]([C@@H](C)O)NC(=O)[C@H]([C@H](O)[C@@H](O)c5ccc(O)cc5)NC(=O)[C@@H]5C[C@@H](O)CN5C(=O)[C@H]([C@@H](C)O)NC4=O)cc3)cc2)cc1 | – | adult ICU patients, mITT, serum | dose not given, day 14 | – | potassium | 4.1 mmol/L
CC(C)(O)c1cc(Nc2cc(Oc3cn(C4CC4)nc3C3CCOCC3)ccn2)ccn1 | Nausea | patients with advanced cancer, Japanese cohort | oral, dose not given, grade ≥3 | – | treatment-related adverse events | 0%
O=C(O)CCCOc1ccc(F)cc1-c1cc(-c2ccccc2C(F)(F)F)n(-c2ccccc2)n1 | – | Crl:CD(SD) rats, female, plasma | iv, 25 µg/kg, 14 days | – | activated partial thromboplastin time | 17.6 s
Clc1ccc(-c2ccccc2)cc1 | – | Sprague-Dawley rats, female, serum | inhalation, 23 µg/rat, 4 h after exposure | – | calcium | 11 ± 1 mg/dL
CC(C)Nc1ccnc(Nc2cccc(-c3cccnc3)c2)n1 | measured: alkaline phosphatase | mouse, blood | intraperitoneal, 5 mg/kg | – | blood chemistry | 207 U/L
O=c1ccc2ccc3occc3c2o1 | post-procedure stability | rat plasma | 8 ng/mL, 3 h, room temperature | – | accuracy | 102%
C[C@]1(CO)Cc2ncn(-c3ccc(C#N)c(Cl)c3)c2C(=O)O1 | – | human, plasma | oral, 10 mg single dose, breakfast, high-fat, high-calorie, after | – | AUC(0-inf) adjusted geometric mean | 2.4 µM·h
O=c1ccc2ncc(=O)n3c2n1C[C@H]3CN1CCC(NCc2cc3c(cn2)OCCC3)CC1 | – | healthy human volunteers, plasma | oral, dose not given, added: rifampicin | reference: compound alone | decrease in Cmax | 27%

Repeated from above:
SMILES | test | system | setting | scale | endpoint | value
COc1cc2c(Oc3ccc4[nH]c(C)cc4c3F)ccnc2cc1OCC1(N)CC1 | – | paediatric recurrent refractory sarcoma | 12 mg | – | grade 1 or 2 Headache | 27.3%
